Published values gathered from unrelated publications.
Lines come from different studies, so protocols differ. ± marks the error that the study gave.

SMILES	test	test system	conditions	how to read	measurement	value
COc1ncc(-c2nc3c(n2C(C)C)[C@H](c2ccc(Cl)cc2)N(c2cc(Cl)cn(C)c2=O)C3=O)c(OC)n1	LC-MS/MS	human, plasma	oral, 4 mg, cycle 1 day 1, low-dose arm		AUC(0-last)	215 ng·h/mL
CCc1cc(C(=O)NC)c2nccc(N3CCc4c(cc(Cn5ccnc5)cc4-c4cn(C)nc4C(F)(F)F)C3=O)c2c1		Sprague Dawley rats	oral, 100 mg/kg twice daily, day 5	reference: day 1	body weight change	6.7%
NC(=O)N1c2ccccc2C=Cc2ccccc21	refers to: infections and infestations (SOC)	human male	oral, dose not given, CTCAE on-treatment AEs		adverse events incidence	0%
CN(C)CCC(=O)Nc1ccc([C@H]2[C@@H](F)[C@@H](F)C[C@@H](F)[C@H]2F)cc1	hepatocyte stability	cryopreserved mouse hepatocytes	1 µM		hepatic clearance	24 mL/min/kg
CO[C@H]1C[C@@H]2CC[C@@H](C)[C@@](O)(O2)C(=O)C(=O)N2CCCC[C@H]2C(=O)O[C@H]([C@H](C)C[C@@H]2CC[C@@H](OC(=O)NCCOCCOCCOCCOCCOCCOCCOCCOCCC(=O)N3CCc4cc(Cn5nc(-c6ccc7oc(N)nc7c6)c6c(N)ncnc65)ccc4C3)[C@H](OC)C2)C[C@@H](O)[C@H](C)/C=C(\C)[C@@H](O)[C@@H](OC)C(=O)[C@H](C)C[C@H](C)/C=C/C=C/C=C/1C		human patients, plasma	intravenous, 16 mg, cycle 1 day 15, weekly dosing		Tmax	0.5 h
CN1C(=O)[C@@H](NC(=O)c2nnc(Cc3ccccc3)[nH]2)COc2cccnc21		human, plasma	oral, 50 mg once daily, day 1, median		Tmax	3 h
CCN1/C(=C/C(C)=O)Sc2ccc(F)cc21		cynomolgus monkey	oral, 10 mg/kg, 4 h post-dose		heart rate	97 ± 22 beats/min
COc1ccc2[nH]c([S+]([O-])Cc3ncc(C)c(OC)c3C)nc2c1 (stereo not drawn)		healthy Chinese volunteers, plasma	oral, 20 mg, fed, CYP2C19 intermediate metabolizers		AUC(0-inf)	722 ± 488 ng·h/mL
O=C(Cn1ccnc1)Nc1ccc([C@H]2[C@@H](F)[C@@H](F)C[C@@H](F)[C@H]2F)cc1		rat liver microsomes	1 µM		hepatic clearance	9.2 mL/min/kg
CCCCC1=NC2(CCCC2)C(=O)N1Cc1ccc(-c2ccccc2S(=O)(=O)Nc2noc(C)c2C)c(COCC)c1		healthy adult volunteers, plasma	oral, 1600 mg, single dose, fed, crushed tablet		Tmax	6 h
NC1(C(=O)N[C@@H](CCO)c2ccc(Cl)cc2)CCN(c2nc[nH]c3nccc2-3)CC1		metastatic CRPC patients	400 mg b.i.d., any grade, treatment-related, with: enzalutamide 160 mg daily		incidence of Somnolence	14.3%
COc1cc2nccc(Oc3ccc(NC(=O)c4cc5c(n(-c6ccccc6)c4=O)CCCC5=O)nc3)c2cc1OC		human, relapsed/refractory AML	oral, dose not given, grade ≥3, any causality, all doses		patients with febrile neutropenia	35%
O=C(Nc1ccc(OC(F)(F)Cl)cc1)c1cnc(N2CC[C@@H](O)C2)c(-c2ccn[nH]2)c1	per treatment cycle, refers to: lipase increase	human patients	oral, dose not given, 28 day cycle		grade ≥3 event rate	0.3%
CC[C@H](C)[C@@H]1NC(=O)[C@@](C)(NC(=O)[C@H](CCCNC(=N)N)NC(=O)[C@H](CC(C)C)NC(=O)[C@@H](NC(=O)[C@H](CCC(N)=O)NC(=O)[C@H](CC(C)C)NC(C)=O)[C@@H](C)O)CCCC=CCCC[C@@](C)(C(=O)N[C@@H](CC(C)C)C(=O)N[C@@H](Cc2ccc3ccccc3c2)C(N)=O)NC(=O)[C@H](CCCNC(=N)N)NC(=O)[C@H](CCC(N)=O)NC1=O		BALB/c mouse, plasma	iv, 5 mg/kg, 36 h		clearance	0.783 mL/min/kg
C[C@@H]1OC(=O)[C@H](Cc2ccccc2)[C@H]1O	soil adsorption	clay loam soil	pH 7.2, organic carbon 4.4 %		KFoc	29.3 mL/g
N#C[C@@]1(c2ccc3c(N)ncnn23)O[C@H](CO)[C@@H](O)[C@H]1O	plasma protein binding	mouse plasma	1 µM, time not given		recovery	96.5%
C=CC(=O)Nc1cc(Nc2nccc(-c3cn(C4CC4)c4ccccc34)n2)c(OC)cc1N(C)CCN(C)C	long-term storage stability	rat plasma	1 ng/mL, 3 weeks, -80 °C	reference: nominal concentration	relative error	12.8%
Cn1cc(-c2cn3nccc3c(-c3cnn([C@]4(CC#N)C[C@@H](C#N)C4)c3)n2)cn1		healthy human fed	dose not given, day 10, once daily dosing		Vz/F	2940 L
Cc1ccc(C(=O)N(CCCN)C(c2nc3snc(C)c3c(=O)n2Cc2ccccc2)C(C)C)cc1 (stereo not drawn)		human patients	intravenous, 18 mg/day		patients with CTCAE grade ≥3 events	100%
C#C[C@]1(CO)O[C@@H](n2cnc3c(N)nc(F)nc32)C[C@@H]1O		human, plasma	oral, 15 mg single dose, extrapolated beyond 96 h		AUC(0-168 h)	1.4 µM·h
C=CC(=O)NC1CCN(c2ncc3ncnc(Nc4ccc(Oc5ccc6c(c5)ncn6C)c(C)c4)c3n2)CC1		healthy male volunteers, urine	oral, 60 mg, 336 h post-dose, geometric mean		dose excreted unchanged	0.139%
C/C(=N\c1ccc(O)cc1)c1cc2ccccc2n1C	ultrafiltration	rat plasma	1000 ng/mL, 1 h, 37 °C		fu	0.014
NS(=O)(=O)c1cccc(-c2ccc(C3CCCCC3)cc2)c1	liver microsome stability	rat liver microsomes	1 µM		hepatic clearance	34 mL/min/kg

SMILES	test	test system	conditions	how to read	measurement	value
CC(C(=O)NCC(=O)NCC(CNC(=O)CNC(=O)C(C)N1CCN(CC(=O)[O-])CCN(CC(=O)[O-])CCN(CC(=O)[O-])CC1)(CNC(=O)CNC(=O)C(C)N1CCN(CC(=O)[O-])CCN(CC(=O)[O-])CCN(CC(=O)[O-])CC1)CNC(=O)CNC(=O)C(C)N1CCN(CC(=O)[O-])CCN(CC(=O)[O-])CCN(CC(=O)[O-])CC1)N1CCN(CC(=O)[O-])CCN(CC(=O)[O-])CCN(CC(=O)[O-])CC1.[Gd+3].[Gd+3].[Gd+3].[Gd+3] (stereo not drawn)	LA-ICP-MS, refers to: subcortical Gd layer	rat, femur	0.6 mmol Gd/kg, 1 week		Gd bone distribution	not detected
COc1cccc(OC)c1-c1cc(C(=O)NC2(C(=O)O)C3CC4CC(C3)CC2C4)nn1-c1ccc(C(=O)N(C)CCCN(C)CCCN(C)C(=O)CN2CCN(CC(=O)[O-])CCN(CC(=O)[O-])CCN(CC(=O)[O-])CC2)cc1C(C)C.[177Lu+3] (stereo not drawn)		mouse, HT-29 xenograft, lung	168 h post injection		tissue uptake	0.38 %ID/g
C[C@]12CC[C@@H]3c4ccc(O)cc4CC[C@H]3[C@@H]1CCC2=O		whole cow milk	2000 nM nominal		dose fraction in skim milk	23.3%
CN(Cc1cccnc1)C(=O)c1ccc(C2CCCCC2)cc1	hepatocyte stability	cryopreserved rat hepatocytes	1 µM		hepatic clearance	48 mL/min/kg
O=C(Nc1nc2cccc(-c3ccc(CN4CCS(=O)(=O)CC4)cc3)n2n1)C1CC1	refers to: blood amylase increased	rheumatoid arthritis patients	oral, 300 mg once daily, 4 weeks, any relatedness		treatment-emergent adverse events	0%
CC(C(=O)Nc1ccc([C@H]2[C@@H](F)[C@@H](F)C[C@@H](F)[C@H]2F)cc1)n1cncn1 (stereo partly drawn)		mouse liver microsomes	1 µM		hepatic clearance	24 mL/min/kg
CCCCCNC(=O)N1CCC(CN(Cc2ccc(Cl)cc2)Cc2ccc([N+](=O)[O-])s2)C1 (stereo not drawn)	refers to: EO%	C57BL/6 mouse, blood	100 mg/kg twice daily, 7 days		blood cell fraction	2.6 ± 0.7%
C[C@@H](N)C1CCN(S(=O)(=O)c2cccc3cnccc23)CC1		healthy volunteers	25 mg, fasted		participants with nausea	0%
C=C(CS(=O)(=O)c1cc(C(F)(F)F)cc(C(F)(F)F)c1)C(=O)OCC	chemical stability, HPLC-MS	borate buffered saline	pH 10.2, no N-acetyl-lysine		degradation rate constant	0.5 h⁻¹
Cc1ccc([C@@H]2O[C@H](CO)[C@@H](O)[C@H](O)[C@H]2O)cc1Cc1ccc(-c2ccc(F)cc2)s1		Japanese type 2 diabetes patients	400 mg, day 18, 24 h urine collection	reference: baseline	urinary chloride excretion change	-23.5 mEq
CCOc1c([C@H](C)n2nc(C)c3c(N)ncnc32)cc(Cl)c(F)c1[C@@H]1CNC(=O)C1		human B-cell malignancy patients	oral, all doses, baseline below threshold		observations with HR >100 bpm	0.9%
Cc1cc(C)c(CNC(=O)c2cc(Cl)c3c(c2C)O[C@@](C)([C@H]2CC[C@H](N(C)C)CC2)O3)c(=O)[nH]1		human relapsed/refractory NHL	oral, 200 mg once daily, onset after cycle 1 day 1		adenovirus infection grade ≥3	4.2%
C=CCN1CC(=O)N2[C@@H](Cc3ccc(O)cc3F)C(=O)N(Cc3cccc(N4CC(N5CCN(CC)CC5)C4)n3)C[C@@H]2N1C(=O)NCc1ccccc1	refers to: Nausea	advanced solid tumour patients	all doses, expansion part, any grade		treatment-related adverse events	78.9%
CNCc1ccc(-c2[nH]c3cc(F)cc4c3c2CCNC4=O)cc1		human patients	oral, 600 mg twice daily, grade 4		dysgeusia incidence	0%
O=C(COCC(F)F)Nc1ccc(C2CCCCC2)cc1	liver microsome stability	cynomolgus liver microsomes	1 µM		hepatic clearance	35 mL/min/kg
Cc1cc(Nc2cc3ncccc3c(N[C@@H]3C[C@H]4CC[C@@H](C3)N4CCC#N)n2)n[nH]1		healthy human	oral, 30 mg multiple doses, 14 days		subjects with contact dermatitis	0%
O=C(N[C@H](Cc1c[nH]c2ccccc12)C(=O)Nc1ccncc1)c1ccc(-c2ccc(F)c(C(F)(F)F)c2)cc1F		Swiss Webster mouse, female, intestine	oral, 50 mg/kg, 8 h, 20% HPβCD vehicle		concentration	11.5 µM
Nc1cccc2ccc(/C=C/C(=O)c3ccccc3)cc12		toluene	20 °C		excitation maximum	417 nm
c1ncc(-c2ccc(C3CCCCC3)cc2)cn1	liver microsome stability	mouse liver microsomes	1 µM		hepatic clearance	78 mL/min/kg
Cc1ccc(O)c(-n2nc3ccccc3n2)c1	exposure assessment	human, age 3-6 years, sunscreen			dermal uptake	1090 ng/kg body weight/day
O=C(O)CCC(=O)O.[2H]C([2H])([2H])Oc1cc(C)c2[nH]ccc2c1CN1CC[C@@H](C2CC2)C[C@H]1c1ccc(C(=O)O)cc1	multiple ascending dose	healthy Chinese subjects	125 mg twice daily		subjects with TEAE Anemia	0%
COc1cc2c(Nc3ccc(Cl)c(Cl)c3F)ncnc2cc1OC[C@@H]1C[C@@H]2CN(C)C[C@@H]2C1		FVB Mdr1a/b(-/-) Bcrp1(-/-) mouse	oral, 70 mg/kg, 2 h		unbound brain concentration	10.9 ng/g
